Experimental data pooled from the literature.
Compare with care: the assays were run in different laboratories. Several values in a cell are separate wells, animals, samples, runs or records. ± marks the error that the study gave.

Molecule | tested on | assay | system | conditions | scale | endpoint | value
COC(=O)[C@H]1[C@@H](OC(=O)c2ccccc2)C[C@@H]2CC[C@H]1N2C | – | – | rat, medial forebrain bundle | intraperitoneal, 10 mg/kg | baseline: baseline | ICSS rate | 171 ± 18.9%
COc1ccc(-c2cc([C@H]3[C@@H](c4ccc(Cl)cc4)C[C@@H]4CC[C@H]3N4C)on2)cc1 | – | nicotine-induced antinociception, antagonist, hot-plate test | mouse | together with: nicotine 2.5 mg/kg sc | – | ED50 | > 20 mg/kg
C#Cc1ccc2c(c1)C(c1ccccn1)=NCc1c(C(=O)OCC)ncn1-2 | – | von Frey | mouse, sciatic nerve CCI | ip, 16 mg/kg, 45 min to 4 h, together with: vehicle after 45 min | – | AUC of paw withdrawal threshold | 1.9 ± 0.29 g·h
Cc1ccc([C@H]2C[C@@H]3CC[C@H]([C@H]2C(=O)OC(C)C)N3C)cc1 | – | nicotine-induced antinociception, antagonist, hot-plate test | mouse | together with: nicotine 2.5 mg/kg sc | – | ED50 | > 20 mg/kg
CN[C@@](C)(C[18F])C(=O)O | DU-145 tumour model | – | host not given, bone | 15 min, tumour-bearing | – | tracer uptake | 1.7 %ID/g
C[C@H]1CNCCc2ccc(Cl)cc21 | – | – | male Sprague-Dawley rat, plasma | subcutaneous, 1 mg/kg, single dose | – | AUC(0-t) | 0.0585 µg·h/mL
COc1ccc2cc3[n+](cc2c1OC)CCc1cc2c(cc1-3)OCO2 | – | – | rat, STZ-induced diabetic, liver | oral, 12 mg/kg, day 28 | – | TBARS | 2.89 ± 0.66 nmol MDA/mg protein
c1ccc(C2(N3CCCCC3)CCCCC2)cc1 | – | nicotine-induced antinociception, antagonist, hot-plate test | ICR mouse, male | subcutaneous, 5 mg/kg, 15 min before nicotine | – | inhibition | 20%
Cc1ccc([C@H]2C[C@@H]3CC[C@H]([C@H]2c2cc(-c4ccc(Cl)cc4)no2)N3C)cc1 | – | nicotine-induced antinociception, antagonist, hot-plate test | mouse | together with: nicotine 2.5 mg/kg sc | – | ED50 | > 20 mg/kg
C#Cc1ccc2c(c1)C(c1ccccc1F)=NCc1c(-c3cnco3)ncn1-2 | – | – | ICR mouse, lactic acid-depressed nesting | dose not given, 60 min nesting period | baseline: vehicle | zones cleared | increased
C[C@H](N)Cc1ccccc1 | – | – | C57BL/6J mouse | intraperitoneal, 3 mg/kg, 5.5 h cumulative | baseline: vehicle-treated mice | locomotor activity | ~9 fold
CCCCCn1cc(C(=O)c2ccc(CC)c3ccccc23)c2ccccc21 | – | – | male ND4 Swiss-Webster mice | intraperitoneal, 1 to 10 mg/kg | – | duration of locomotor depression | 190 min
Cc1cc([C@H]2C[C@@H]3CC[C@H]([C@H]2c2cc(-c4ccccc4)no2)N3C)ccc1Cl | – | nicotine-induced antinociception, antagonist, hot-plate test | mouse | together with: nicotine 2.5 mg/kg sc | – | ED50 | > 20 mg/kg
CCC1=NC(C)CC1(c1ccccc1)c1ccccc1.Cl (centres unmarked) | – | elevated plus maze | Sprague-Dawley rat | subcutaneous, dose not given, 30 min, 300 s test | – | time in open arms | 143 s
CNC(C)Cc1ccc2c(c1)OCO2 (racemic) | – | visual analog scale, item: Anxious | human | oral, 0.75 mg/kg, mean over session, unit not given | baseline: pre-dose baseline | mood rating | 11.5
C#Cc1ccc2c(c1)C(c1ccccn1)=NCc1c(-c3cnco3)ncn1-2 | – | increase in zones cleared | mouse, lactic acid-depressed nesting | – | baseline: vehicle | effective dose | 10 mg/kg
Polymyxin B | – | LAL test | human heparinized plasma | 60 min, 37 °C, together with: Pseudomonas aeruginosa LPS 5 ng/mL | – | endotoxin neutralizing concentration | < 400 ng/mL and 219 ng/mL

Some of these lines once more:
Molecule | tested on | assay | system | conditions | scale | endpoint | value
CNC(C)Cc1ccc2c(c1)OCO2 (racemic) | – | visual analog scale, item: Anxious | human | oral, 0.75 mg/kg, mean over session, unit not given | baseline: pre-dose baseline | mood rating | 11.5
